Experimental data collected from several papers.
Compare with care: the assays were run in different laboratories.

Structure (SMILES) = N#Cc1ccc(Nc2nc(N)cc(Oc3c(F)cc(-c4ccc(C#N)cc4)cc3F)n2)cc1; system = human liver microsomes; setting = 1 µM; measurement = scaled intrinsic clearance; value = 1.08 mL/min/kg
Structure (SMILES) = CCOc1ccc2ccc(=O)oc2c1; system = hamster hepatocytes; measurement = scaled hepatic intrinsic clearance; value = 1440 mL/min/kg
Structure (SMILES) = O=c1ccc2ccc(O)cc2o1; system = cryopreserved SD rat hepatocytes; setting = 1 µM; measurement = scaled intrinsic clearance; value = 284 mL/min/kg
Structure (SMILES) = O=C(O)Cc1ccccc1Nc1c(Cl)cccc1Cl; system = CD-1 mouse liver microsomes; setting = 1 µM, pH 7.4; measurement = scaled CLint; value = 212 mL/min/kg
Structure (SMILES) = CC(C)c1nc(N(C)S(C)(=O)=O)nc(-c2ccc(F)cc2)c1/C=C/[C@@H](O)C[C@@H](O)CC(=O)O; system = cynomolgus sandwich-cultured hepatocytes; setting = 1 µM; measurement = scaled biliary intrinsic clearance; value = 6.6 mL/min/kg
Structure (SMILES) = O=C(O)Cc1ccccc1Nc1c(Cl)cccc1Cl; system = human liver microsomes; setting = 1 µM, pH 7.4; measurement = scaled intrinsic clearance; value = 226 mL/min/kg
Structure (SMILES) = CCOc1c(O)cc(Br)c2c1CN1CCc3cc(OCC(F)F)c(O)cc3[C@@H]1C2; system = rat liver S9; setting = 2 µM, pH 7.4; measurement = scaled intrinsic clearance; value = 902 mL/min/kg
Structure (SMILES) = NC(=O)c1cn(-c2ccnc(N)n2)c2cc(C#CC3(O)CCCCC3)ccc12; system = CD-1 mouse liver microsomes; setting = 1 µM, pH 7.4; measurement = scaled CLint; value = 106 mL/min/kg
Structure (SMILES) = OCc1nc2ccc(NCc3ccc(C(F)(F)F)cc3)cc2[nH]1; system = human liver S9; setting = 1 µM, pH 7.4; measurement = scaled intrinsic clearance; value = 644 mL/min

Some of these lines once more:
Structure (SMILES) = N#Cc1ccc(Nc2nc(N)cc(Oc3c(F)cc(-c4ccc(C#N)cc4)cc3F)n2)cc1; system = human liver microsomes; setting = 1 µM; measurement = scaled intrinsic clearance; value = 1.08 mL/min/kg
